# Results collected from several papers.
# Numbered parts are unrelated; each lists some results of a single study. Positions count from the first letter of the parent shown.
# UniProt Q9FGV1, sequence (whole entry, looked up): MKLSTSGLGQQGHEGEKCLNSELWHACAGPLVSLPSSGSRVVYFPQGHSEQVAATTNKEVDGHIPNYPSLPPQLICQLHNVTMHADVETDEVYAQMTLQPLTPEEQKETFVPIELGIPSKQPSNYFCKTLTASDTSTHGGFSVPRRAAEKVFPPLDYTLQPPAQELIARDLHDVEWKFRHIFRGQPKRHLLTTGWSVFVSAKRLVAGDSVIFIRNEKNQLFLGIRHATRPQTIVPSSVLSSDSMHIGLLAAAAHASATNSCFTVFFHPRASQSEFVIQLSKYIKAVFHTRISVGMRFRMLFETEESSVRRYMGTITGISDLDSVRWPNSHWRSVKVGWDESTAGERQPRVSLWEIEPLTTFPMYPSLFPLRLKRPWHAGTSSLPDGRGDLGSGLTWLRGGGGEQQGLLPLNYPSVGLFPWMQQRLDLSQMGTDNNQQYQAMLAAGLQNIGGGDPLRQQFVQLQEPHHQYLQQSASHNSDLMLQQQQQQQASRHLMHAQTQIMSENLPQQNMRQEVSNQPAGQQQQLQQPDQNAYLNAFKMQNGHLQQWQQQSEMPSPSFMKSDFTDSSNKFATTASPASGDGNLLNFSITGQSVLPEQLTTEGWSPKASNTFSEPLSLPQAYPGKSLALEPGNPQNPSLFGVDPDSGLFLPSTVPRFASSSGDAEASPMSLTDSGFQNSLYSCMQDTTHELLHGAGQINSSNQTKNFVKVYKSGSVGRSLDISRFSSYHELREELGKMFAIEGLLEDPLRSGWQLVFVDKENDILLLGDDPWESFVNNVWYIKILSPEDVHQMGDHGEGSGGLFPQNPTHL
# UniProt Q9FX25, sequence (whole entry, looked up): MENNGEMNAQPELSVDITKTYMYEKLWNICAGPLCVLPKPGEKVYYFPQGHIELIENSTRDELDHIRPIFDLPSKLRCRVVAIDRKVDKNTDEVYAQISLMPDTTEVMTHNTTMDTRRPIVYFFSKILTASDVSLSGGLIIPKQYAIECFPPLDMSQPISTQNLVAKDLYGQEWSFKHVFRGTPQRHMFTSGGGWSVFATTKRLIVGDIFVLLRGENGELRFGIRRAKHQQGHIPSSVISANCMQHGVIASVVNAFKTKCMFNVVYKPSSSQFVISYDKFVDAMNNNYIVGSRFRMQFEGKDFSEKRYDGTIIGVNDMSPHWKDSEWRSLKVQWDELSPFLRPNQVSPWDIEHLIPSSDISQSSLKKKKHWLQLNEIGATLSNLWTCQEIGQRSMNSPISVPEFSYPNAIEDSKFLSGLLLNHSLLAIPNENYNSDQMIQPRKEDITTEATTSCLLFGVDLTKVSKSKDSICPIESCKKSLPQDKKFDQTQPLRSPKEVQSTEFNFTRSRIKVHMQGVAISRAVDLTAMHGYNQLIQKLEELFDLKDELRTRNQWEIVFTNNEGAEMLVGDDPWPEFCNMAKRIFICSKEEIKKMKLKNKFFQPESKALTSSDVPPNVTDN
# UniProt Q9SKN5, sequence (whole entry, looked up): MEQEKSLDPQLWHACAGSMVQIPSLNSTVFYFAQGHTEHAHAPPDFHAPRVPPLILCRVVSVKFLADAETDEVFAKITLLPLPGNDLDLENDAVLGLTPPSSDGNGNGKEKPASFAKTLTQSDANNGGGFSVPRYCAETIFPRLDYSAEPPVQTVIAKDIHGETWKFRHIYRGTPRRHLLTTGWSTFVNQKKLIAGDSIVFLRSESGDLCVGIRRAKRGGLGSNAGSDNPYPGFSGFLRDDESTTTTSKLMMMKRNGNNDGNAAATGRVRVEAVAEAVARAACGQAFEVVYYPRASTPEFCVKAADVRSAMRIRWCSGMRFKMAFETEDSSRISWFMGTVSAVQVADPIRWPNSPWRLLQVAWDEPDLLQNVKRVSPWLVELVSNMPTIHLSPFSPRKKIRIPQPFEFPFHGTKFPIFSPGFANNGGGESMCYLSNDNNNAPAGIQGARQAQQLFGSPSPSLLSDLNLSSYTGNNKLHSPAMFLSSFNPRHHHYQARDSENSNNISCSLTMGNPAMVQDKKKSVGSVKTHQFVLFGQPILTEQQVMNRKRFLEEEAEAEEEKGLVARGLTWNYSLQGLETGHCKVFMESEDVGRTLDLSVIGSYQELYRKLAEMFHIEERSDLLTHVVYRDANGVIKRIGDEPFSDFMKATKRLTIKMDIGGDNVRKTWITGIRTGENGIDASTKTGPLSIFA
# UniProt Q8RYC6, sequence (whole entry, looked up): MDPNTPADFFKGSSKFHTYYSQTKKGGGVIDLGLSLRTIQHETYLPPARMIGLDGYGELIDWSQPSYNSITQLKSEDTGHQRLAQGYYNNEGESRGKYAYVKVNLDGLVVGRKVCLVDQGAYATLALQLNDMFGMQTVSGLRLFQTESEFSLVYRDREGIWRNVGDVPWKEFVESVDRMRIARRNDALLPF
# UniProt Q9FKM7, sequence (whole entry, looked up): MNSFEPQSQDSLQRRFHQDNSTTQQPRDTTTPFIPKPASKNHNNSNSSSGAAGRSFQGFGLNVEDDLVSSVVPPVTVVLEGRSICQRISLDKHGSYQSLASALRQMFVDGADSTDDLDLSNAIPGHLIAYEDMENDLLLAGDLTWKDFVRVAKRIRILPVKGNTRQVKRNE
# UniProt P93022, sequence (whole entry, looked up): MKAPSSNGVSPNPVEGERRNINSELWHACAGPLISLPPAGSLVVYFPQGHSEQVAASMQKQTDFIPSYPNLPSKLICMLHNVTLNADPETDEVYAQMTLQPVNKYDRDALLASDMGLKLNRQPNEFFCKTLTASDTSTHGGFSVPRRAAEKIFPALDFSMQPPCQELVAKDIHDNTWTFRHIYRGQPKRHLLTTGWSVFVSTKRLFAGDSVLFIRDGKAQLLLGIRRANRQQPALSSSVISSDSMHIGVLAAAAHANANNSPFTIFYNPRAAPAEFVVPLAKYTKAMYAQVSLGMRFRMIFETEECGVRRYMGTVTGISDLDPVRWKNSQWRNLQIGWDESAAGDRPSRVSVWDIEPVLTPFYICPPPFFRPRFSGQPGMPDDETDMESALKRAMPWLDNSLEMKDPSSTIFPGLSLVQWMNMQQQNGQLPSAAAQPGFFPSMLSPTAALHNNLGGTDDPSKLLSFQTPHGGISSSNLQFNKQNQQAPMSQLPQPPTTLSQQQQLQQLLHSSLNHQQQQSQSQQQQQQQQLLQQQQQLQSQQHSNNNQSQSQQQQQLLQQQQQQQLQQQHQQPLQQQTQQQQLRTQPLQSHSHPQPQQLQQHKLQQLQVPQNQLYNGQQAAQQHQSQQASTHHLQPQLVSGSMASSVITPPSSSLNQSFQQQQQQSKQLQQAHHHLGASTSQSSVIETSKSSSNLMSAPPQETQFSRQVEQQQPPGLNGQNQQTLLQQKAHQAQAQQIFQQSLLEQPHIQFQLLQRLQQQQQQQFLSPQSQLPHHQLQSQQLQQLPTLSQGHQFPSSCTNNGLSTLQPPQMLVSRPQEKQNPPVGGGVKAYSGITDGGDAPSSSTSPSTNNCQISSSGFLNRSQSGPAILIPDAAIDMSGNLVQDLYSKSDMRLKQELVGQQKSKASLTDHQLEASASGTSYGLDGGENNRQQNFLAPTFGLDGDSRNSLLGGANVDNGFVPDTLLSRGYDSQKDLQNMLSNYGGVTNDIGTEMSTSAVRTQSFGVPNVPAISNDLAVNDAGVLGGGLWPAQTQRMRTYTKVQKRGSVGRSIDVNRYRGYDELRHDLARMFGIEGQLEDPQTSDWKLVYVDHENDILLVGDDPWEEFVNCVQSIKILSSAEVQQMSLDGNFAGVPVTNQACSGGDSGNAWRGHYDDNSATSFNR
# UniProt Q93YR9, sequence (whole entry, looked up): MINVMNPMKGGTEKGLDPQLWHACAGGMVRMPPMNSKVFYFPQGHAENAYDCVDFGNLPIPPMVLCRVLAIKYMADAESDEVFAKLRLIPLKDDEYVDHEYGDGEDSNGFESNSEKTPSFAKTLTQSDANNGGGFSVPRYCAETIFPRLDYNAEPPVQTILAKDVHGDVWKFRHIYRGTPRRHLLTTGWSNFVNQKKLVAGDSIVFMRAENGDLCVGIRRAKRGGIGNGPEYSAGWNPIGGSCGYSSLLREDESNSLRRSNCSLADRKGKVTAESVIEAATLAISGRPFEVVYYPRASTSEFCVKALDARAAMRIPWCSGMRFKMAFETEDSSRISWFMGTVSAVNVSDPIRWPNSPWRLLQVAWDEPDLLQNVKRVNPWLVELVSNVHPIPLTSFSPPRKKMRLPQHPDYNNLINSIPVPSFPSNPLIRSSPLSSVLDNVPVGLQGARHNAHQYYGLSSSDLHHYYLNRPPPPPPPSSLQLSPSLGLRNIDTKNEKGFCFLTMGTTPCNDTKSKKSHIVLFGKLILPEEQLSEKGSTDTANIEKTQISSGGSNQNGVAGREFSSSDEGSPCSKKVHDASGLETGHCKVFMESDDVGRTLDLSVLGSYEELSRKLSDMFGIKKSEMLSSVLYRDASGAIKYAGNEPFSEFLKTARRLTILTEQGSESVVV
# UniProt P08588, sequence (whole entry, looked up): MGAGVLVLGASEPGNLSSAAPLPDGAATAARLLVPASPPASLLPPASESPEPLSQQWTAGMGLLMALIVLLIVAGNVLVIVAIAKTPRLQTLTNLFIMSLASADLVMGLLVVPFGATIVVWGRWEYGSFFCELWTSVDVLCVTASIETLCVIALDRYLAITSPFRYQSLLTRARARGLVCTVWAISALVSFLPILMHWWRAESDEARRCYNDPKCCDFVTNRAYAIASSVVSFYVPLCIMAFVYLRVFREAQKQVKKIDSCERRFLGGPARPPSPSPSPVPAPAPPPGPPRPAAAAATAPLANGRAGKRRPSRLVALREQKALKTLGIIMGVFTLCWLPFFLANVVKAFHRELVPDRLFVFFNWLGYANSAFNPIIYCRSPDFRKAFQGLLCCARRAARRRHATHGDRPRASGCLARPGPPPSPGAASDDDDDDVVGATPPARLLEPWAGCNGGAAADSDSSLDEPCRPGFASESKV

# Set 1 — technique: EMSA with sequencing; form: double-stranded DNA, one strand shown; matrix: in vitro; tested at: 10 and 20 nM; reference: negative control set to 0; direction: higher = stronger binding
# Target: Hepatocyte nuclear factor 3-alpha (Foxa1, Mus musculus, UniProt P35582, residues 1-468, full length assumed)
# Notes: whole designed probe, mean of two concentrations, ends assumed
# Target sequence (chain): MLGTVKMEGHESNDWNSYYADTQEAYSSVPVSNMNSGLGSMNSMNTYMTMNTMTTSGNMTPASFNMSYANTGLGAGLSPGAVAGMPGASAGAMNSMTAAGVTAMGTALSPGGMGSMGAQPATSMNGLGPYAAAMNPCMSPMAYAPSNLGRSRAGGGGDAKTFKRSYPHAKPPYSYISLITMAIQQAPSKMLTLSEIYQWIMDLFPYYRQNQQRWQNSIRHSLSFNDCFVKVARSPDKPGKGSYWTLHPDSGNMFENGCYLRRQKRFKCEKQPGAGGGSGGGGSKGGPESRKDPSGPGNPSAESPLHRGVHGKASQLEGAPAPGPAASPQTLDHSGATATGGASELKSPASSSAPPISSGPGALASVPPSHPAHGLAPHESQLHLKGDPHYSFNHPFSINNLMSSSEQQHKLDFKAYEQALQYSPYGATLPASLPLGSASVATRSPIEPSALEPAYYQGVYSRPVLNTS
Strand,normalised bound fraction [ratio]
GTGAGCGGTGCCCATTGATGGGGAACTTTTTTCTGTACAGGGAAAAATAGTGAATATTTCAAAATTGTGAAACAAAGAGTCTCTGTGGCAACTGTTGCATAACACTCATTAGACAATATGCAAACAAATGAGTGTGTCTGTGTTCCAATAAAACTGTATTTACAAAAGCAGAAGGCCACCCATGTGCCAATGTCCAAAGTTTCTCAACCAACCCCTGGTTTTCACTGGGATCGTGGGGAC,0.319
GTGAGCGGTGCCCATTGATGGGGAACATGAAAGCAGCCCAGACGAGCTGTGAGCAGCTGGGCTGGATAATTGTGAAGGATTCATGCTTGTTGCTGTTACCCCCAGAGATTGCAGTGGGTAGATTGCTTTGACTTTTGTTGAACTGTTGACAAAAGCATTAGATACAAATGGGAACAAATAAAGTGGTGAGATGCCAGGAGGGCTTGGCAGGAGTAGTGGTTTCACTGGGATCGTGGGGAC,0.174
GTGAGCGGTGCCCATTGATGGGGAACTTTGTGCTCCTTGCTCCTACTCCCAAAGCCTCAAATCTGCTATGTGGCCTTTCCCAGTTGGCTTCTTTTATTTTCTTAACTTCTCCCTTGTAATGTAAACATGGGAAAGAGAAAGTGGTAGAAGAACAAAGAATAAGCATACAAAGTAGCTCCACTCCTTCTGCATAGAGCTTTAATAAGGAAATGGTGCCACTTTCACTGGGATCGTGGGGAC,0.434
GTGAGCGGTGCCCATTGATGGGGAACGTCTCCTGGGGTTCTGCGAAATCTAGCCAGAAGCATCTCCATCTCGGTGTCCATTTCGATCCAACTAAGCTTCCAGTAAAGACACTGCAGCAATGTAAACATGCAACCTAAGCTAGCATGAGGTTCTAGATAGTAAGCCTGAACTAGGAATAAGGCAACTGAACTGTGACTTTCGGGCCAGGGTCATCCAGCTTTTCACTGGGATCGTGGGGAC,0.349
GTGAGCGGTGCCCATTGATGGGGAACTTGACTTAAGGCTTCCTCCCAGCCCCCTCTCAGCCTCTAGCAACATACAGATGGCGTCATTCAGCACCTTGAATCATTTGGACAGCAGCAAAAGCAAACAAGAAACTCACCAACAGTGAAGCTAAATTAGCTGTCAGGGCTGCAATTGTACAGAATGTGTGGAAGCCAAGAAATAGCACCAGGGCTAAGAAGCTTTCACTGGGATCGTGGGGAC,0.365
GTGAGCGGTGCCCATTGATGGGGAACATCTTCCCCCTCTTCCTTGCCCCACCAGCTCACCTTCCCGGGTTATTTGCAGATAGGAAAATAAATAAAGCCGGCATTCGTTAACCCTCTTCACGCGCATACTGCTGTTTGCTCTGGATCTAACATGGTCCTGATGAATCATGAGGCTCCGGGAGAGCAAAGCACCGTGTCAGGGCCATGATCCGGGGTGGCCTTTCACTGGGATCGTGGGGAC,0.358
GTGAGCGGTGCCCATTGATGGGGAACAAGAGGGAGTGAAGGTCTCTGAAAATGTAGGAGTCCCTTTAGTAGATGGGGAGAAATGGGTTAAAGATTTTTAAAAATTGCACAGACAGTAGTTGTTTGCTCTTTGGTTACAGGTGAATTATCTCTATCCTAGTTAGGAGTGGAGGACTGAAGTATGTCTCAATGCACAAACTAAGGCTGTGCAGGCTTGGAATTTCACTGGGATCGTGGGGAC,0.11
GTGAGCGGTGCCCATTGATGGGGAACAGAACATATAAATCAGCACAAACAATGTAATATCAGATGGCTTTCAAATAAGAGATTAGAAAATGTTGTCCAAAGATATAAATAATGTGAAAAGTAAATAAAAATGCATTTATTTCATTAAGATAGATGACATAACTTTTTTAATGTCAAGGAATTTAATAATCACCTCCCTAAAACTTAATGGGTCCTCCCCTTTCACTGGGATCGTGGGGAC,0.461

# Set 2 — target: CCNB1, cyclin fold, Cln2 fusion (human); technique: yeast growth competition, sequencing; matrix: yeast; notes: weak parent motif; reference: not given; direction: higher = stronger binding; starting sequence: viral docking peptide; KKAKRRLFTISDS
Variant,normalised enrichment score
F8L,0.684
R5A L7A,0.00849
L7A,0.286
D12A,0.554
R5A,1.04
S11A,0.919
R5K F8L,0.0943
K2A,0.679
F8A,1.51

# Set 3 — Molecule: B1 (IAA31); technique: two-hybrid; direction: higher = firmer interaction
# B1: IAA31 (Arabidopsis thaliana, UniProt Q8H174); chain MEVSNSCSSFSSSSVDSTKPSPSESSVNLSLSLTFPSTSPQREARQDWPPIKSRLRDTLKGRRLLRRGDDTSLFVKVYMEGVPIGRKLDLCVFSGYESLLENLSHMFDTSIICGNRDRKHHVLTYEDKDGDWMMVGDIPWDMFLETVRRLKITRPERY
partner,scale,positive tests
"ARF8 699-811 (Arabidopsis thaliana, UniProt Q9FGV1)",reference: out of 2 tests,2
"IAA33 (Arabidopsis thaliana, UniProt Q9FKM7)",reference: out of 2 tests,1
"ARF4 660-788 (Arabidopsis thaliana, UniProt Q9ZTX9)",reference: out of 2 tests,0
"ARF10 575-693 (Arabidopsis thaliana, UniProt Q9SKN5)",reference: out of 2 tests,0
"ARF13 (Arabidopsis thaliana, UniProt Q9FX25)",reference: out of 2 tests,0
"ARF7 1030-1164 (Arabidopsis thaliana, UniProt P93022)",reference: out of 2 tests,1
"ARF16 570-670 (Arabidopsis thaliana, UniProt Q93YR9)",reference: out of 2 tests,1
"IAA32 (Arabidopsis thaliana, UniProt Q8RYC6)",reference: out of 4 tests,1

# Single results of other studies
SMILES,target,test,quantity,value
CCCN(CCC)C1CCc2c(ccc(O)c2O)C1 (centres unmarked),"Beta-1 adrenergic receptor (ADRB1, Homo sapiens, UniProt P08588)",antagonist,IC50,≥ 100 µM
